Published values gathered from unrelated publications.
Protocols differ between the studies behind these lines. Several values in a cell are separate wells, animals, samples, runs or records. ± marks the error that the study gave. In brackets after ≈: the same amount, converted by molar mass.
DRD3: D(3) dopamine receptor (DRD3, Homo sapiens, UniProt P35462)
UniProt P35462, sequence (whole entry, looked up): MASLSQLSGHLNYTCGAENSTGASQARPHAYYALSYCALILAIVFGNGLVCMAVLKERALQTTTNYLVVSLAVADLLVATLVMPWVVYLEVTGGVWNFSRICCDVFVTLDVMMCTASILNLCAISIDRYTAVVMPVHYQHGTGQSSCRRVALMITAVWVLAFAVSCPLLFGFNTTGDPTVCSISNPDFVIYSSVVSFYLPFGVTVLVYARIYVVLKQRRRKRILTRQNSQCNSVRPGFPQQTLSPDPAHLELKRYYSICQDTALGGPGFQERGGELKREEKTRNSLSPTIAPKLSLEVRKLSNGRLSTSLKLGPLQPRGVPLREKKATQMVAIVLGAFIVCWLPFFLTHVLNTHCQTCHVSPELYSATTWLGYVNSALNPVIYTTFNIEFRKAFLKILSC

Structure (SMILES)	tested on	assay	test system	setting	how to read	endpoint	value
O=C(c1cccnc1-c1ccncc1)N1CCC(O)(Cc2ccccc2)CC1	–	–	healthy Japanese adults, plasma	oral, 100 mg twice daily, day 7	–	AUCtau/dose	2.24 ng·h/mL/mg
CNCc1ccc(-c2[nH]c3cc(F)cc4c3c2CCNC4=O)cc1	–	–	human patients	oral, 600 mg twice daily, grade 2	–	AST/ALT increased incidence	11.5%
C[C@@H]1[C@H](O)[C@@H](C)/C=C/C=C/C=C/C=C/C=C/C=C/C=C/[C@H](O[C@@H]2O[C@H](C)[C@@H](O)[C@H](N)[C@@H]2O)C[C@@H]2O[C@](O)(C[C@@H](O)C[C@@H](O)[C@H](O)CC[C@@H](O)C[C@@H](O)CC(=O)O[C@H]1C)C[C@H](O)[C@H]2C(=O)O	–	–	human blood	500 µg/mL, 12 h, DMSO solvent	–	hemolysis	13.8% and 13.4% and 14.6%
NCCOCC(=O)N1CCC[C@H](C(=O)NCc2nc(-c3ccc(C(F)(F)F)cc3)cs2)C1	–	–	Sprague-Dawley rat, male, plasma	oral, 3 mg/kg	–	unbound AUC	0.01 µM·h
COc1cc(N2CCC3(CCN(C)CC3)CC2)ccc1Nc1ncc(Cl)c(Nc2ccccc2P(C)(C)=O)n1	–	population PK model	human	oral, final model without outliers	–	V2/F	295 L
CC(C)Oc1c(NC(=O)c2ccc(NC(=O)[C@H](CC(N)=O)NC(=O)c3cc(F)c(/N=N/c4c(F)cccc4F)c(F)c3)cc2)ccc(C(=O)N/N=C/c2ccc(C(=O)O)s2)c1O	–	absorbance	DMSO	45 °C, PSS to ground state relaxation	–	thermal half-life	66 min
C=CCN1CC(=O)N2[C@@H](Cc3ccc(O)cc3F)C(=O)N(Cc3cccc(N4CC(N5CCN(CC)CC5)C4)n3)C[C@@H]2N1C(=O)NCc1ccccc1	–	item: Malaise	advanced solid tumour patients	oral, 120 mg twice daily, expansion part, any grade	–	treatment-related adverse events	20%
NC1(C(=O)N[C@@H](CCO)c2ccc(Cl)cc2)CCN(c2nc[nH]c3nccc2-3)CC1	–	–	metastatic CRPC patients	320 mg b.i.d., any grade, treatment-related, together with: enzalutamide 160 mg daily	–	incidence of Arthralgia	0%
CC(C)[C@H](C(=O)Nc1ccc(C(=O)NO)cc1)c1ccccc1	–	–	whole blood	10.0 ng/mL, 5 h, 4 °C, stability on ice	–	measured concentration	10.9 ng/mL
CC(C)=CC[C@@H](O)C1=CC(=O)c2c(O)ccc(O)c2C1=O	–	–	plasma	0.5 ng/mL, 3 d, -80 °C, storage stability	–	measured concentration	0.48 ± 0.02 ng/mL
CC(C)(C(=O)N1CCOc2c(C#N)cncc2C1)C(F)F	–	item: disturbance in attention	human	oral, 20 mg twice daily, 14 days, multiple ascending dose	–	subjects with adverse event	12.5%
Cc1ccc(Sc2ccccc2N2CCNCC2)c(C)c1	–	item: Pollakiuria	healthy adult men	oral, 10 mg daily, 12 days	–	participants with TEAE	0%
CC(=O)Nc1ccc(S(=O)(=O)Nc2c(C)nn(-c3ccccc3)c2C)cc1	CDK2 (Homo sapiens, UniProt P24941)	binding	–	–	–	Kd	> 100 µM
COc1ncc(-c2nc3c(n2C(C)C)[C@H](c2ccc(Cl)cc2)N(c2cc(Cl)cn(C)c2=O)C3=O)c(OC)n1	–	–	human patients, plasma	oral, 150 mg	–	geometric mean AUC(0-last)	8210 ng·h/mL
O=S(=O)(c1ccc(-c2ccc3nccc(Nc4ccncn4)c3c2)cc1)N1CCOCC1	–	–	female BALB/c mice, brain	intraperitoneal, 10 mg/kg, 8 h, mean	–	brain concentration	0 ng/g
NC(CO)(CO)CCc1ccc(Sc2cccc(OCc3ccccc3)c2)cc1Cl	–	–	human, supine	oral, 3 mg, 0 to 24 h, alone	–	pulse rate AUEC, median	1270 h×bpm
CN(C)CCNS(=O)(=O)c1ccc(N/C=C2\C(=O)Nc3ccccc32)cc1	Cyclin-dependent kinase 2, with cyclin A (CDK2, Homo sapiens, UniProt P24941)	bio-layer interferometry (Octet RED)	–	298 K, CDK2-cyclin A complex, averaged	–	Kd	0.84 µM
Cc1[nH]cc(C(=O)N2CCC(F)(F)C2)c1S(=O)(=O)Nc1ccc(C(F)(F)F)c(Cl)c1	DRD3	β-arrestin recruitment, antagonist, PathHunter	–	together with: dopamine EC80	–	IC50	> 100 µM
COc1cc2c3c(n(CCCN4CCOCC4)c(=O)c2cc1OC)-c1cc2c(cc1C3=O)OCO2	–	–	beagle dog, female, plasma	intravenous infusion, 50 mg/m^2, 1 h infusion	–	AUC(0-inf)	1110 ± 267 ng·h/mL
O=C(O)CCC(=O)O.[2H]C([2H])([2H])Oc1cc(C)c2[nH]ccc2c1CN1CC[C@@H](C2CC2)C[C@H]1c1ccc(C(=O)O)cc1	–	multiple ascending dose	healthy Chinese subjects	100 mg twice daily	–	subjects with elevated bilirubin TEAE	12.5%
NCCONC(=O)[C@@H]1CC[C@@H]2CN1C(=O)N2OS(=O)(=O)O	–	item: leading to withdrawal	healthy Chinese men	intravenous, 1 g, treatment-related	–	adverse event incidence	0%
Cc1noc(C)c1Cn1cc(N2C(=O)CN(Cc3cccc(O)c3)C2=O)cn1	–	–	pooled rat liver microsomes Sprague-Dawley	50 µM, 30 min, pH 7.4	–	remaining parent	72 % peak area
O=C1CSCCN1c1ccc(CO[C@@H]2COc3nc([N+](=O)[O-])cn3C2)cc1F	–	–	aqueous buffer	pH 7.4	–	aqueous solubility	28 µg/mL (≈ 68.6 µM)

Structure (SMILES)	tested on	assay	test system	setting	how to read	endpoint	value
CNC(=O)c1cc(Oc2ccc(NC(=O)Nc3cc(C(C)(C)C)nn3-c3ccc4ncccc4c3)c(F)c2)ccn1	–	item: worst grade 1	human	oral, dose not given, cycles 1 and 2, Medium AUC(0-4 h) subgroup	–	patients with visual abnormality AE	29%
Cn1cc(-c2cn3nccc3c(-c3cnn([C@]4(CC#N)C[C@@H](C#N)C4)c3)n2)cn1	–	–	healthy humans fed, plasma	30 mg once daily, day 10, geometric mean	–	average concentration	31.4 ng/mL
O=C1CC[C@H](N2Cc3cc(N4CCN(CC5CCN(c6ccc([C@@H]7c8ccc(O)cc8CC[C@@H]7c7ccccc7)cc6)CC5)CC4)ccc3C2=O)C(=O)N1	–	rapid equilibrium dialysis	human hepatocytes	2.5 µM, 6 h	–	unbound fraction in hepatocytes	0.12
Cc1nc(-c2ccc(OCC(C)C)c(C#N)c2)sc1C(=O)O	–	–	KM mouse, chronic hyperuricaemia model	dose not given, day 10	–	body weight	33.2 g and 35 g and 31.9 g and 29.5 g and 28.7 g and 28.2 g
O=C(O)CCCCCCCCCCC(=O)O	–	–	human, plasma	endogenous control diurnal	relative to: daily mean concentration	relative peak deviation	67.9 ± 11.3%
CCn1c(=O)c(-c2cc(NC(=O)Nc3ccccc3)c(F)cc2Br)cc2cnc(N)cc21	–	plasma protein binding, ultracentrifugation	healthy human subjects, plasma	24 h post-dose	–	unbound fraction	≤ 0.5%
NC/C(=C\F)COc1cccc(Cn2c(=S)[nH]c(=O)c3[nH]cnc32)c1	–	–	rat plasma	1 µM, 1 h	–	remaining compound	100%
Cc1ccc(NS(=O)(=O)c2c(C)[nH]c(C)c2C(=O)N2CCC(F)(F)C2)nc1Cl	DRD3	β-arrestin recruitment, antagonist, PathHunter	–	together with: dopamine EC80	–	IC50	> 100 µM
Cc1ccc(N(C)C(=O)/C=C/c2ccco2)cc1	–	hot plate test	mice	oral, 30 mg/kg daily for 7 days, 15 min, day 8	–	licking latency	15.2 ± 0.6 s
Cc1cc(C)c(CNC(=O)c2cc(Cl)c3c(c2C)O[C@@](C)([C@H]2CC[C@H](N(C)C)CC2)O3)c(=O)[nH]1	–	CTCAE v4.0, item: aspartate aminotransferase increased	human relapsed/refractory NHL	oral, 200 mg once daily, onset after cycle 1 day 1, overall treatment period	–	patients with TEAE	16.7%
N#Cc1ccc2c(c1)[C@H]1CCCN(C(=O)c3ccc4[nH]cnc4c3)[C@H]1C2	–	–	human females	360 mg, end of trial	–	DHEA-S	5.4 µmol/L
C=CC(=O)N1CCC[C@@H](n2nc(-c3ccc(Oc4ccccc4)cc3)c3c(N)ncnc32)C1	–	–	Wistar rat, plasma	oral, dose not given, suspension	–	mean residence time	6.42 ± 1.96 h
CCCCCCCCCCCCCCCC(=O)N[C@@H](CCC(=O)NCCCC[C@@H]1NC(=O)[C@H]([C@@H](C)CC)NC(=O)[C@@H](NC(=O)[C@@H]2CCCN2C(=O)[C@H](Cc2ccccc2)NC(=O)[C@H](Cc2c[nH]cn2)NC(=O)[C@@H](NC(=O)[C@H](CC(=O)O)NC(=O)CC(C)C)[C@@H](C)O)CSSC[C@@H](C(=O)N[C@@H](CCCCN)C(N)=O)NC(=O)CNC(=O)[C@H](CCCCN)NC(=O)[C@H](CO)NC(=O)[C@H](CCCNC(=N)N)NC(=O)[C@@H]2CCCN2C(=O)[C@H](CCC(=O)O)NC(=O)[C@H](Cc2ccccc2)NC1=O)C(=O)O	–	–	healthy volunteers, plasma	subcutaneous, 30 mg	relative to: parent plus metabolites	AUC(0-inf) share of total	58.2 ± 4.16%
CSc1ccccc1C(=O)NCCn1cc(C(=O)NCc2cccc(C)n2)c(=O)c2cc3c(cc21)OC(F)(F)O3	–	–	Sprague-Dawley rat, male, whole blood	intravenous, 5 mg/kg of parent compound	–	half-life	21.6 ± 0.6 min
C[Si](C)(C)O[Si](C)(C)C	–	–	–	–	–	slope B, log KAW vs 1/T	-2770
Cn1cc(-c2ccc(-c3cncc(Cl)c3N3CCC4(CCNC4=O)CC3)cc2)cn1	COLO 205	gene expression, microarray, item: APOL6 mRNA	–	concentration not given, 2 h	relative to: untreated cells	log2 fold change	2.09
O=C(Cc1ccc2ccccc2c1)Nc1cc(C2CCC2)[nH]n1	–	–	mouse plasma	375 ng/mL, -80 °C, freeze-thaw stability, together with: 3 freeze-thaw cycles	–	measured mean concentration	375.7 ± 0.3 ng/mL
O=C(Nc1nc2cccc(-c3ccc(CN4CCS(=O)(=O)CC4)cc3)n2n1)C1CC1	–	item: gastrointestinal disorders	human rheumatoid arthritis patients	oral, 30 mg once daily, 4 weeks, regardless of relatedness	–	treatment-emergent adverse events	23.5%
CC[C@@H]1CN(C(=O)NCC(F)(F)F)C[C@@H]1c1cnc2cnc3[nH]ccc3n12	–	population PK modelling	human	oral, final model, outliers re-estimated	relative to: extended-release over immediate-release	relative bioavailability	75.5%
C[C@@H](N)c1cc(Cl)ccc1Cn1c(=S)[nH]c(=O)c2[nH]ccc21	–	–	human, both sexes, severe renal impairment	oral, 2.5 mg single dose, geometric mean	–	non-renal clearance	131 mL/min
OC[C@H]1O[C@@H](c2ccc(F)c(Cc3cc4ccccc4s3)c2)[C@H](O)[C@@H](O)[C@@H]1O	–	–	Japanese patients, type 1 diabetes	oral, 25 mg/day, onset day 8	relative to: patients	hypoglycaemia-related adverse event	4%
CCc1cc(C(=O)NC)c2nccc(N3CCc4c(cc(Cn5ccnc5)cc4-c4cn(C)nc4C(F)(F)F)C3=O)c2c1	–	–	Sprague Dawley rat	oral, 100 mg/kg twice daily, 7 days	relative to: vehicle	spleen weight change	-22.4%

Excerpt of the above:
Structure (SMILES)	tested on	assay	test system	setting	how to read	endpoint	value
NCCONC(=O)[C@@H]1CC[C@@H]2CN1C(=O)N2OS(=O)(=O)O	–	item: leading to withdrawal	healthy Chinese men	intravenous, 1 g, treatment-related	–	adverse event incidence	0%
C=CCN1CC(=O)N2[C@@H](Cc3ccc(O)cc3F)C(=O)N(Cc3cccc(N4CC(N5CCN(CC)CC5)C4)n3)C[C@@H]2N1C(=O)NCc1ccccc1	–	item: Malaise	advanced solid tumour patients	oral, 120 mg twice daily, expansion part, any grade	–	treatment-related adverse events	20%
Cc1ccc(NS(=O)(=O)c2c(C)[nH]c(C)c2C(=O)N2CCC(F)(F)C2)nc1Cl	DRD3	β-arrestin recruitment, antagonist, PathHunter	–	together with: dopamine EC80	–	IC50	> 100 µM
